Assay results of several laboratories.
Parts stem from different laboratories: compare values within a part only. “And” joins repeats or separate records; there may be more than shown.
UniProt Q99683, sequence (whole entry, looked up): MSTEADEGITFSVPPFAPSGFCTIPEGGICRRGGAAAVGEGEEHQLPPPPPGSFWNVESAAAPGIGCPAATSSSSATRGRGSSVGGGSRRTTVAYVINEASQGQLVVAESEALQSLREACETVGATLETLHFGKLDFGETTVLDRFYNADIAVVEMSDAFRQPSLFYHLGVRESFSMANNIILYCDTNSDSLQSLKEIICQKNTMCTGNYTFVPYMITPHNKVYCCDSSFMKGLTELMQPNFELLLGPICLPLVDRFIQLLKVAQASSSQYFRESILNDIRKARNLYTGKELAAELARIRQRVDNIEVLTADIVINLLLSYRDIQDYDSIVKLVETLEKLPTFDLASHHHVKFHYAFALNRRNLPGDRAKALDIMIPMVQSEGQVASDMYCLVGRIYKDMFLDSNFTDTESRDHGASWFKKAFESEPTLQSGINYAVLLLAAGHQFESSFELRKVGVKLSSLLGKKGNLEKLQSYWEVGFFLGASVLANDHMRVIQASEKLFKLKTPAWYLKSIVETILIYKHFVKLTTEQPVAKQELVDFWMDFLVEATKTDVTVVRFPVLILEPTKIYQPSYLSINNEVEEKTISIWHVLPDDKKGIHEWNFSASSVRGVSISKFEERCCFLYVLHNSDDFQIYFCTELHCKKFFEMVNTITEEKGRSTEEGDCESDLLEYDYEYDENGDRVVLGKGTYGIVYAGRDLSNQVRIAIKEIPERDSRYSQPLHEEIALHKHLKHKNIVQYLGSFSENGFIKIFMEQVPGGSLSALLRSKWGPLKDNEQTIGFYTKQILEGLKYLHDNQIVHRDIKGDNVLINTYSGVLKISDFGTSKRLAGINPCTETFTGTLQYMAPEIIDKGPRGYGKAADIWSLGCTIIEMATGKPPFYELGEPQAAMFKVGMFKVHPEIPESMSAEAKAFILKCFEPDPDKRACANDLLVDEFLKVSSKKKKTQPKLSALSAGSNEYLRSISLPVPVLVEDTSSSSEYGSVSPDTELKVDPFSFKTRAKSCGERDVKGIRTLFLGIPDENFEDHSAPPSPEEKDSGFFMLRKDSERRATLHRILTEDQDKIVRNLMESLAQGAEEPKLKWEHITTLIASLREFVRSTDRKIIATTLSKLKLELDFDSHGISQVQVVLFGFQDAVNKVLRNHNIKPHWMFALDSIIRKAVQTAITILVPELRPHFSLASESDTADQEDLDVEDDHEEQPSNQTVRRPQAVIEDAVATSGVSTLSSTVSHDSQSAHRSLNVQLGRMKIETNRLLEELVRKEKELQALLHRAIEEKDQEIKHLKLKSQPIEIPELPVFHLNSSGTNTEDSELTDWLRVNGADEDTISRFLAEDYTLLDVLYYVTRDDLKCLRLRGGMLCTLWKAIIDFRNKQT
UniProt P07947, sequence (whole entry, looked up): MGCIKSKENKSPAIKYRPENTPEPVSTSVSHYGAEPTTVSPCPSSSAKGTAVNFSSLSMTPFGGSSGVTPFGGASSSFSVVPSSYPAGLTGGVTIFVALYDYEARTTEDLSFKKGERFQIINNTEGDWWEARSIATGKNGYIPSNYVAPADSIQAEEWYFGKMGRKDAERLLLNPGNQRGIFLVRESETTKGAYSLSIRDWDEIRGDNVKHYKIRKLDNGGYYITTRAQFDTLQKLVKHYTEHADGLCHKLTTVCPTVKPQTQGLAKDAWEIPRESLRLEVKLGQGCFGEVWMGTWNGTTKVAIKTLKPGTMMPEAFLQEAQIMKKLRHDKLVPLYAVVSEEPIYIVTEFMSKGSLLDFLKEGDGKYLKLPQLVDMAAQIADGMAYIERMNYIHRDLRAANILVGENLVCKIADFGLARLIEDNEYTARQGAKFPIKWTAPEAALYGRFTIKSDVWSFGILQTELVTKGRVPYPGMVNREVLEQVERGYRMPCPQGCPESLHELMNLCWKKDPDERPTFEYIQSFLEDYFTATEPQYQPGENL
UniProt Q15349, sequence (whole entry, looked up): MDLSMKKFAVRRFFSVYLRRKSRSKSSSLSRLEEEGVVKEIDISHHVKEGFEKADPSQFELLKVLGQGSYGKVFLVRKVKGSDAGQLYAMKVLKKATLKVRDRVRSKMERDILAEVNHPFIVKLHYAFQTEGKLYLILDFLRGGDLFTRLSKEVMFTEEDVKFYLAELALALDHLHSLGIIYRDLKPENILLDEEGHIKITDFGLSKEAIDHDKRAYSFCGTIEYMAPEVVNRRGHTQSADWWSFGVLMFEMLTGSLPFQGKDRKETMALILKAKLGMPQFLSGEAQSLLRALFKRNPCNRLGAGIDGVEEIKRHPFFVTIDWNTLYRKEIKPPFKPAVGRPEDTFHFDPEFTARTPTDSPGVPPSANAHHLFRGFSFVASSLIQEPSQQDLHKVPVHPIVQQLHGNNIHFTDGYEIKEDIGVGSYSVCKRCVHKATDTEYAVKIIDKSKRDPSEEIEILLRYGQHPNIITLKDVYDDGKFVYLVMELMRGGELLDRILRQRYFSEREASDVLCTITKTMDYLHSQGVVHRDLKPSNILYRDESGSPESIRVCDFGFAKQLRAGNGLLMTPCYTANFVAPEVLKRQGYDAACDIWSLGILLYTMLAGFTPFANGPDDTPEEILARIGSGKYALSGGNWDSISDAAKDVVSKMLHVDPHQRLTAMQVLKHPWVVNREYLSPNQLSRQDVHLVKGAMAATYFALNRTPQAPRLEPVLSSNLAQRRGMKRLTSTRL
UniProt Q15139, sequence (whole entry, looked up): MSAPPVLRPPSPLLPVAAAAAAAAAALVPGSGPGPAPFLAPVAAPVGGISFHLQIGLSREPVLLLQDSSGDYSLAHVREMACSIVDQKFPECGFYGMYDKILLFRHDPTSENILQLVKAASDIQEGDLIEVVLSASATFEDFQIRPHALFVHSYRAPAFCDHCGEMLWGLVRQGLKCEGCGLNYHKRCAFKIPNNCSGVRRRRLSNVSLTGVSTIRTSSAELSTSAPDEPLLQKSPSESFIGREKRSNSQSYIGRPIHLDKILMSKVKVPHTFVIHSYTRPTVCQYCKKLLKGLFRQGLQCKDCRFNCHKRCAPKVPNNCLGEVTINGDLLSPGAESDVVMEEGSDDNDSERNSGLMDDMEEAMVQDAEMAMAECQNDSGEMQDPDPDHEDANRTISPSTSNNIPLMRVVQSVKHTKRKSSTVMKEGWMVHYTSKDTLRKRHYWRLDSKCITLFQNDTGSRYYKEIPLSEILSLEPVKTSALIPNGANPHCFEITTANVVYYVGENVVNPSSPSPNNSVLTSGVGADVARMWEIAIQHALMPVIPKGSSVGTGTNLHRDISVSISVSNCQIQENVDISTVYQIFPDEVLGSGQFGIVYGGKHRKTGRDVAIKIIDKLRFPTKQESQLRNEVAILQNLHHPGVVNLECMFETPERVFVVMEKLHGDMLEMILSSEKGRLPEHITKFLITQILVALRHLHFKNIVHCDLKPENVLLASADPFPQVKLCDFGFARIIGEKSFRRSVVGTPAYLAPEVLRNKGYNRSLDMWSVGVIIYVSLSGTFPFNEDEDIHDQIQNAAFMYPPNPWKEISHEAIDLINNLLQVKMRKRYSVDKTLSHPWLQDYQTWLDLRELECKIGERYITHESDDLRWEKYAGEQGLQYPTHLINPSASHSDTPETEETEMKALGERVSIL
UniProt P41279, sequence (whole entry, looked up): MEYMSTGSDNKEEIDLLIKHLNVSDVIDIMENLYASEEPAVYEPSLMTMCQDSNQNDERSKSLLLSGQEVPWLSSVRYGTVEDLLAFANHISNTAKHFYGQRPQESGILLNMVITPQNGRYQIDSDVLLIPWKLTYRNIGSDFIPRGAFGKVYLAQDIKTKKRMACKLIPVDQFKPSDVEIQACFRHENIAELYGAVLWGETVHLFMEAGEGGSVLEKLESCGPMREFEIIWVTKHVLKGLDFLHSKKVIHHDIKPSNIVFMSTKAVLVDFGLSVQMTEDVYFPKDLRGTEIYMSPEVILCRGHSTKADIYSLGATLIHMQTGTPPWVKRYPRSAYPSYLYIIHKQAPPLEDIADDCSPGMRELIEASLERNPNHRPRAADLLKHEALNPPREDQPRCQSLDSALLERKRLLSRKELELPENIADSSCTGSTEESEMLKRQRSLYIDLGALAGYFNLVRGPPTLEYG
UniProt Q8TD19, sequence (whole entry, looked up): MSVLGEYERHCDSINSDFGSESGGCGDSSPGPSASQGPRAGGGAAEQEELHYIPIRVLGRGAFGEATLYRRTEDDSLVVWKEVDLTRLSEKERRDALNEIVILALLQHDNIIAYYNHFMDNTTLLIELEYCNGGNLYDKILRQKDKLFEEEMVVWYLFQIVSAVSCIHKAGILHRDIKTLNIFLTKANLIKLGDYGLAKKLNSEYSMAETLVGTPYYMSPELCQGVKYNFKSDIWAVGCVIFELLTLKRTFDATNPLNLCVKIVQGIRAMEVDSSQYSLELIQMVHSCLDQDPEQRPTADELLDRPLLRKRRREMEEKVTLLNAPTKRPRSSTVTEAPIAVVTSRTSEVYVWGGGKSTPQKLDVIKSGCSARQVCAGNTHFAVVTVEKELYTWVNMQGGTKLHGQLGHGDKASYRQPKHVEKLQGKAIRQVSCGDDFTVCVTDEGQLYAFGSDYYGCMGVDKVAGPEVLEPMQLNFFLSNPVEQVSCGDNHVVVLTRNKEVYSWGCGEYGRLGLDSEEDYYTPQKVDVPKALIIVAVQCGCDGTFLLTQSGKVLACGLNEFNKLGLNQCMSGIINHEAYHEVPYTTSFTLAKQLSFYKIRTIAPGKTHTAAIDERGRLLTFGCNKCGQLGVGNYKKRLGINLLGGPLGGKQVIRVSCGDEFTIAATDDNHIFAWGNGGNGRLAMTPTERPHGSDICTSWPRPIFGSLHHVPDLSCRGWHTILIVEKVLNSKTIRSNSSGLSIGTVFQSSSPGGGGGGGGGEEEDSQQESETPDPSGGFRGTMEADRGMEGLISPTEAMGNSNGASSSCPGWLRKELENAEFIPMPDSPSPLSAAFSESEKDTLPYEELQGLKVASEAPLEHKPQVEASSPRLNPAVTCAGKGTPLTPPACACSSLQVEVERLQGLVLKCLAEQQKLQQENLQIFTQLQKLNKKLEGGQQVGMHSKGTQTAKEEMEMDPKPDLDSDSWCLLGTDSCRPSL

Sample 1 — tested at: 0.1 µM
Structure (SMILES): O=C(NCCCC1CCCCC1)c1ccc(CNC(=O)c2cnn(-c3ccccc3)c2C(F)(F)F)cc1
For Epidermal growth factor receptor (EGFR, Homo sapiens, UniProt P00533, del752-759); cell-free assay, competition with immobilised ligand: remaining binding read 99%.
Tyrosine-protein kinase SYK (SYK, Homo sapiens, UniProt P43405); cell-free assay, competition with immobilised ligand — remaining binding: 100%.
For 5'-AMP-activated protein kinase catalytic subunit alpha-1 (PRKAA1, Homo sapiens, UniProt Q13131); cell-free assay, competition with immobilised ligand: remaining binding read 100%.
For Serine/threonine-protein kinase MRCK gamma (CDC42BPG, Homo sapiens, UniProt Q6DT37); competition binding: remaining binding read 99%.
For Protein kinase C epsilon type (PRKCE, Homo sapiens, UniProt Q02156); cell-free assay, competition with immobilised ligand: remaining binding read 88%.
For Phosphatidylinositol 4-kinase beta (PI4KB, Homo sapiens, UniProt Q9UBF8); cell-free assay, competition with immobilised ligand: remaining binding read 77%.
It gave 94% for remaining binding (MAP/microtubule affinity-regulating kinase 3 (MARK3, Homo sapiens, UniProt P27448); cell-free assay, competition with immobilised ligand).
Ribosomal protein S6 kinase alpha-5, N-terminal kinase domain (RPS6KA5, Homo sapiens, UniProt O75582); cell-free assay, competition with immobilised ligand — remaining binding: 100%.
For Tyrosine-protein kinase Yes (YES1, Homo sapiens, UniProt P07947); cell-free assay, competition with immobilised ligand: remaining binding read 100%.
The remaining binding was 92% (Serine/threonine-protein kinase PAK 1 (PAK1, Homo sapiens, UniProt Q13153); cell-free assay, competition with immobilised ligand).
The remaining binding was 100% (Serine/threonine-protein kinase 17A (STK17A, Homo sapiens, UniProt Q9UEE5); cell-free assay, competition with immobilised ligand).
It gave 92% for remaining binding (Myosin light chain kinase (MYLK3, Homo sapiens, UniProt Q32MK0); cell-free assay, competition with immobilised ligand).
Mitogen-activated protein kinase kinase kinase 20 (MAP3K20, Homo sapiens, UniProt Q9NYL2); cell-free assay, competition with immobilised ligand — remaining binding: 100%.
The remaining binding was 100% (Cyclin-dependent kinase 9 (CDK9, Homo sapiens, UniProt P50750); cell-free assay, competition with immobilised ligand).
Ribosomal protein S6 kinase alpha-2, N-terminal kinase domain (RPS6KA2, Homo sapiens, UniProt Q15349); cell-free assay, competition with immobilised ligand — remaining binding: 100%.
The remaining binding was 80% (Ephrin type-A receptor 2 (EPHA2, Homo sapiens, UniProt P29317); cell-free assay, competition with immobilised ligand).
It gave 87% for remaining binding (Mitogen-activated protein kinase kinase kinase 10 (MAP3K10, Homo sapiens, UniProt Q02779); cell-free assay, competition with immobilised ligand).
SNF-related serine/threonine-protein kinase (SNRK, Homo sapiens, UniProt Q9NRH2); cell-free assay, competition with immobilised ligand — remaining binding: 100%.
Mitogen-activated protein kinase kinase kinase 5 (MAP3K5, Homo sapiens, UniProt Q99683); cell-free assay, competition with immobilised ligand — remaining binding: 91%.

Sample 2 — SMILES: Cc1cc(Nc2nc(-c3ccccc3)nc3ccccc23)n[nH]1; read-out: enzyme activity; mode: inhibitor; tested at: 0.5 µM; reference: control
The remaining activity was 79.9% (Serine/threonine-protein kinase Nek9 (NEK9, Homo sapiens, UniProt Q8TD19)).
For Myotonin-protein kinase (DMPK, Homo sapiens, UniProt Q09013): remaining activity read 100%.
The remaining activity was 77.4% (Serine/threonine-protein kinase D1 (PRKD1, Homo sapiens, UniProt Q15139)).
Dual specificity tyrosine-phosphorylation-regulated kinase 4 (DYRK4, Homo sapiens, UniProt Q9NR20) — remaining activity: 103%.
It gave 42.2% for remaining activity (STE20-like serine/threonine-protein kinase (SLK, Homo sapiens, UniProt Q9H2G2)).
For Aurora kinase A (AURKA, Homo sapiens, UniProt O14965): remaining activity read 19.8%.
For Proto-oncogene tyrosine-protein kinase receptor Ret (RET, Homo sapiens, UniProt P07949): remaining activity read 8.76%.
Casein kinase II subunit alpha' (CSNK2A2, Homo sapiens, UniProt P19784) — remaining activity: 15%.
Epidermal growth factor receptor (EGFR, Homo sapiens, UniProt P00533) — remaining activity: 97.4%.
Serine/threonine-protein kinase N2 (PKN2, Homo sapiens, UniProt Q16513) — remaining activity: 87.2%.
Protein-tyrosine kinase 2-beta (PTK2B, Homo sapiens, UniProt Q14289) — remaining activity: 61.4%.
For Homeodomain-interacting protein kinase 3 (HIPK3, Homo sapiens, UniProt Q9H422): remaining activity read 88.5%.
Cyclin-dependent kinase 2, with cyclin A (CDK2, Homo sapiens, UniProt P24941) — remaining activity: 96.9%.
The remaining activity was 73.3% (Cyclin-dependent kinase 7 (CDK7, Homo sapiens, UniProt P50613)).
For G protein-coupled receptor kinase 5 (GRK5, Homo sapiens, UniProt P34947): remaining activity read 119%.
The remaining activity was 2.01% (NT-3 growth factor receptor (NTRK3, Homo sapiens, UniProt Q16288)).
The remaining activity was 105% (Mitogen-activated protein kinase kinase kinase 8 (MAP3K8, Homo sapiens, UniProt P41279)).
It gave 88.7% for remaining activity (Mitogen-activated protein kinase 10 (MAPK10, Homo sapiens, UniProt P53779)).
The remaining activity was 78.4% (Mitogen-activated protein kinase kinase kinase 2 (MAP3K2, Homo sapiens, UniProt Q9Y2U5)).
The remaining activity was 85.4% (Calcium/calmodulin-dependent protein kinase type 1D (CAMK1D, Homo sapiens, UniProt Q8IU85)).
It gave 101% for remaining activity (Calcium/calmodulin-dependent protein kinase type 1G (CAMK1G, Homo sapiens, UniProt Q96NX5)).
It gave 16.7% for remaining activity (Proto-oncogene tyrosine-protein kinase ROS (ROS1, Homo sapiens, UniProt P08922)).

Sample 3 — mode: inhibitor; tested at: 10 µM; reference: control
Target: Diamine acetyltransferase 1 (Homo sapiens, UniProt P21673)
Residues (P21673 1-171): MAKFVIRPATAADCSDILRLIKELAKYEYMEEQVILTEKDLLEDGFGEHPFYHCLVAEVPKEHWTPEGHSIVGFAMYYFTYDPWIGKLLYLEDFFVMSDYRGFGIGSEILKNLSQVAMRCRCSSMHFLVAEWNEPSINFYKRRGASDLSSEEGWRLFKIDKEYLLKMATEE
With `C=C1CC[C@H]2C[C@@H]1C2(C)C` the remaining activity was 112%.
The remaining activity of `C=C1CC[C@H]2O[C@]2(C)CC[C@@H]2[C@@H]1CC2(C)C` is reported as 109%.
The remaining activity of `COCCc1ccc(O)cc1` is reported as 95.9%.
For `CC1(C)C[C@@H](O)[C@]2(C)CC[C@]3(C)C(=CC[C@@H]4[C@@]5(C)CC[C@H](O)[C@](C)(CO)[C@@H]5CC[C@]43C)[C@@H]2C1`, the remaining activity was 123%.
With `O=C(O)C1CCCCN1` (stereo not drawn) the remaining activity was 101%.
`CCCCCCCCCCCCCCCCCC(=O)OC` gave a remaining activity of 95.7%.
`COc1cc(/C=C/CO)ccc1O` has a remaining activity of 110%.
With `CC(C)(C)c1ccc(O)c(C(C)(C)C)c1` the remaining activity was 79%.
With `O=C(OC[C@H]1O[C@@H](OC(=O)c2cc(O)c(O)c(O)c2)[C@H](OC(=O)c2cc(O)c(O)c(O)c2)[C@@H](OC(=O)c2cc(O)c(O)c(O)c2)[C@@H]1OC(=O)c1cc(O)c(O)c(O)c1)c1cc(O)c(O)c(O)c1` the remaining activity was 102%.
With `CC(C)(O[C@@H]1O[C@H](CO)[C@@H](O)[C@H](O)[C@H]1O)[C@@H]1CC[C@](C)([C@H]2[C@@H](O)C[C@@]3(C)[C@@H]4C[C@H](O)[C@H]5C(C)(C)[C@@H](O[C@@H]6OC[C@@H](O)[C@H](O)[C@H]6O)CC[C@@]56C[C@@]46CC[C@]23C)O1` the remaining activity was 123%.
`NC(Cc1ccc(O)cc1)C(=O)O` (racemic) gave a remaining activity of 95.3%.

Single results of other studies — method: differential scanning fluorimetry; tested at: concentration not given; setting: unit not given; reference: WDR5 alone
Target: WD repeat-containing protein 5 (WDR5, Homo sapiens, UniProt P61964)
`C[C@@H]1CN(c2ccc(-c3cc(C(=O)NCCOCCOCCOCCOCCOCCOCCOCCOCCOCCNC(=O)/C=C/c4[nH]cc(C(=O)N[C@@H](CC(N)=O)c5ccc(F)c(Cl)c5)c4-c4ccc(Cl)cc4F)ccc3F)cc2NC(=O)c2c[nH]c(=O)cc2C(F)(F)F)C[C@H](C)N1C` has a ΔTm of 8.86 and 8.9 and 9 and 9.08 and 8.94 and 8.59 and 8.89.
With `C[C@@H]1CN(c2ccc(-c3cc(C(=O)NCCOCCOCCOCCOCCOCCOCCNC(=O)/C=C/c4[nH]cc(C(=O)N[C@@H](CC(N)=O)c5ccc(F)c(Cl)c5)c4-c4ccc(Cl)cc4F)ccc3F)cc2NC(=O)c2ccc(F)cc2C(F)(F)F)C[C@H](C)N1C` the ΔTm was 6.08 and 5.44 and 6.16 and 5.31 and 5.72 and 6.26 and 6.22 and 6.06.
